# Experimental data of several laboratories.
# “And” joins repeats or separate records; there may be more than shown. ± marks the error that the study gave.
SMILES,organism,assay,system,setting,scale,measurement,value
N=C(N)c1cccc(OCc2ccc(COc3cccc(C(=N)N)c3)cc2)c1,Escherichia coli,checkerboard,mcr-2 polymyxin-resistant,"concentration not given, 20 h, added: rifampicin",,MIC of compound in combination,25 µg/mL
O=C(N1CCc2ccccc21)n1ccnn1,Arabidopsis thaliana,,"wild type, seeds","1 µM, after high-temperature exposure, added: 1 µM karrikin KAR2",,germination rate,55.9% and 36.1% and 57.1% and 42.5% and 50% and 67.9%
COC(=O)N[C@H](C(=O)N1CCC[C@H]1c1ncc(-c2ccc(-c3ccc(-c4cnc([C@@H]5CCCN5C(=O)[C@@H](NC(=O)OC)C(C)C)[nH]4)cc3)cc2)[nH]1)C(C)C,Human alphaherpesvirus 1,multi-cycle viral growth,Vero,,,EC50,> 11000 nM
C=C[C@]1(C)C[C@@H](OC(=O)CSCCN(CC)CC)[C@]2(C)[C@H](C)CC[C@]3(CCC(=O)[C@H]32)[C@@H](C)[C@@H]1O,Mycoplasma gallisepticum,,"infected chickens, lung","oral, 40 mg/kg",,lung mycoplasma count,3.63 log10 CFU/mL and 3.42 log10 CFU/mL and 3.69 log10 CFU/mL and 3.23 log10 CFU/mL and 3.02 log10 CFU/mL and 3.31 log10 CFU/mL and 3.17 log10 CFU/mL and 3.11 log10 CFU/mL
COC[C@H]1O[C@@H]2O[C@H]3[C@H](OC)[C@@H](OC)[C@@H](O[C@H]4[C@H](OC)[C@@H](OC)[C@@H](O[C@H]5[C@H](OC)[C@@H](OC)[C@@H](O[C@H]6[C@H](OC)[C@@H](OC)[C@@H](O[C@H]7[C@H](OC)[C@@H](OC)[C@@H](O[C@H]8[C@H](OC)[C@@H](OC)[C@@H](O[C@H]1[C@H](OC)[C@H]2OC)O[C@@H]8COC)O[C@@H]7COC)O[C@@H]6COC)O[C@@H]5COC)O[C@@H]4COC)O[C@@H]3COC,Escherichia coli,"LuxR reporter, agonist",DH5α sensor strain,1 µM,,bioluminescence,733 ± 41 RLU
CC1=CC(=O)CC(C)(C)[C@@]1(O)/C=C/C(C)=C\C(=O)O,Arabidopsis thaliana,DAB staining,"wild type, rosette leaves","1 µM, 2 h",higher = more H2O2,H2O2 staining intensity,249 a.u. and 295 a.u. and 279 a.u. and 313 a.u. and 280 a.u. and 223 a.u. and 107 a.u. and 224 a.u.
Cc1nc2c(NCc3cccc(S(C)(=O)=O)c3)nccn2c1-c1ccc(O)c(F)c1,Rhinovirus C,high-throughput screen,RV-C15a-mGL,10 µM,,viral replication,inhibited
COC(=O)[C@H](Cc1c[nH]c2ccccc12)NCc1cc2ccccc2nc1OC,Pseudomonas aeruginosa,,,"32 µg/mL, added: pentamidine 50 µM",baseline: control,growth,83.3%
Nc1nc(-c2ccccc2)nc2[nH]nc(Nc3ccc(C(F)(F)F)cc3)c12,coxsackievirus B3,,"31-1-93, NMRI mice, CVB3 chronic myocarditis","oral, 100 mg/kg twice daily, day 13, dosed days 0 to 6, score scale 0 to 7",direction not given,clinical score,0
COC(=O)[C@H](Cc1c[nH]c2ccccc12)NCc1cc2ccccc2nc1SC,Pseudomonas aeruginosa,,,"16 µg/mL, added: pentamidine 100 µM",baseline: control,growth,55.8%
CC(=O)NC[C@H]1CN(c2ccc(N3CCOCC3)c(F)c2)C(=O)O1,Staphylococcus,,"MRSA-38, mouse systemic infection",intravenous,survival,ED50,13.7 mg/kg
CC(C)n1ncc2c(C(=O)NCC3(C)CNC3)cc(C3CC3)nc21,Enterovirus D68,cytopathic effect,"RD, US/IL/14-18952",150 nM,,cell protection,1.22% and 0% and -0.541%
C[C@@H](O)[C@H]1C(=O)N2C(C(=O)O)=C(SCCN=CN)C[C@H]12,Acinetobacter baumannii,,"0403, female ICR mice, peritonitis, spleen",dose not given,,bacterial load,2.22 log CFU and 3.22 log CFU and 3.12 log CFU and 2.52 log CFU and 3 log CFU
COc1cc2cc(CNCCC3CCN(C4CCCC4)CC3)c(SCc3ccccc3)nc2c(OC)c1OC,Acinetobacter baumannii,"NADH-driven proton pumping, ACMA quenching",inverted membrane vesicles,32 µg/mL,,inhibition,78%
C[C@@H]1[C@H](O)[C@@H](C)/C=C/C=C/C=C/C=C/C=C/C=C/C=C/[C@H](O[C@@H]2O[C@H](C)[C@@H](O)[C@H](N)[C@@H]2O)C[C@@H]2O[C@](O)(C[C@@H](O)C[C@@H](O)[C@H](O)CC[C@@H](O)C[C@@H](O)CC(=O)O[C@H]1C)C[C@H](O)[C@H]2C(=O)O,Aspergillus fumigatus,,Af 293,"1 × MIC, 12 h",,viable cell reduction,40 to 45%
CN1CCN(CCNCc2cc3cc(-c4ccccc4)ccc3nc2SCc2ccccc2)CC1,Acinetobacter baumannii,"NADH-driven proton pumping, ACMA quenching",inverted membrane vesicles,2 µg/mL,,inhibition,8%
CCn1c(=O)c(-c2cc[nH]n2)cc2c(C)nc(N)nc21,Echovirus 11,viral replication,HeLa,"concentration not given, 20 h",,viral titre,decreased
Cc1cc(OC(C)C)ccc1C(=O)C(C)(C)NC(=O)c1sccc1C,Botrytis allii,mycelial growth,PSA medium,20 °C,,EC50,0.22 µg/mL
CCOC(=O)c1c(C)nc(NCCCNc2ccnc3cc(Cl)ccc23)nc1C,feline herpesvirus,viral replication,CRFK,,,EC50,> 100000 nM
CC1=CC(=O)CC(C)(C)[C@@]1(O)/C=C/C(C)=C\C(=O)O,Arabidopsis thaliana,,"pyl3/7/9/11/12 mutant, seeds",1 µM,,number of germinated seeds,11 and 8 and 7
Cc1nc2[nH]c(=O)n(O)c(=O)c2s1,Echinochloa crus-galli,glasshouse pot,,"1500 g/ha, 21 days, pre-emergence",,inhibition,9.5%
CC(=O)NC[C@H]1CN(c2ccc(N3CCOCC3)c(F)c2)C(=O)O1,Enterococcus faecium,,NR-31912,,,MIC,2.96 µM
CN[C@H](CC(C)C)C(=O)N[C@H]1C(=O)N[C@@H](CC(N)=O)C(=O)N[C@H]2C(=O)N[C@H]3C(=O)N[C@H](C(=O)N[C@H](C(=O)O)c4cc(O)cc(O)c4-c4cc3ccc4O)[C@H](O)c3ccc(c(Cl)c3)Oc3cc2cc(c3O[C@@H]2O[C@H](CO)[C@@H](O)[C@H](O)[C@H]2O[C@H]2C[C@](C)(N)[C@H](O)[C@H](C)O2)Oc2ccc(cc2Cl)[C@H]1O,Streptococcus pneumoniae,,"penicillin-resistant, 10 isolates",pH 5.5,,MIC50,0.5 µg/mL
COC(=O)[C@H](Cc1ccc(O)cc1)NCc1cc2ccccc2nc1SC,Pseudomonas aeruginosa,,,"64 µg/mL, without pentamidine",baseline: control,growth,90%
CN[C@H](CC(C)C)C(=O)N[C@H]1C(=O)N[C@@H](CC(N)=O)C(=O)N[C@H]2C(=O)N[C@H]3C(=O)N[C@H](C(=O)N[C@H](C(=O)O)c4cc(O)cc(O)c4-c4cc3ccc4O)[C@H](O)c3ccc(c(Cl)c3)Oc3cc2cc(c3O[C@@H]2O[C@H](CO)[C@@H](O)[C@H](O)[C@H]2O[C@H]2C[C@](C)(N)[C@H](O)[C@H](C)O2)Oc2ccc(cc2Cl)[C@H]1O,Enterococcus faecium,,Enterococcus faecium,40 strains,,MIC50,1 µg/mL
Cc1ccc(CCC(=O)Nc2nnc(S(N)(=O)=O)s2)cc1,Enterococcus faecium,,NR-31954,,,MIC,0.766 µM
CC[C@H]1OC(=O)[C@H](C)[C@@H](O[C@H]2C[C@@](C)(OC)[C@@H](O)[C@H](C)O2)[C@H](C)[C@@H](O[C@@H]2O[C@H](C)C[C@H](N(C)C)[C@H]2O)[C@](C)(O)C[C@@H](C)/C(=N\OCOCCOC)[C@H](C)[C@@H](O)[C@]1(C)O,Enterococcus faecium,agar dilution,"vancomycin-intermediate, 25 isolates",,,MIC50,> 128 µg/mL
CC(=O)Oc1ccccc1C(=O)Nc1ncc([N+](=O)[O-])s1,Cryptosporidium parvum,,HCT-8,"EC50, 6 h",baseline: DMSO control,parasite number,73.3% and 86.4% and 95.6% and 73.8%
Brc1ccc2nc(SCc3ccccc3)c(CNCCC3CCN(C4CCCC4)CC3)cc2c1,Acinetobacter baumannii,"NADH-driven proton pumping, ACMA quenching",inverted membrane vesicles,32 µg/mL,,inhibition,87%
O=c1cc2ccocc-2o1,Arabidopsis thaliana,,"wild type, seedlings",0.3 µM,,hypocotyl length,13.2 mm
Cc1c2c(nn1C)CSCc1cc(n(C)n1)CSc1cc(c3ccccc3c1)OCCCc1c(C(=O)O)n(C)c3c-2c(Cl)ccc13,Staphylococcus aureus,broth microdilution,methicillin-susceptible clinical isolates,,,MIC90,12.5 µM
CN1CCN(c2cnc3c(cc(C(=O)NCc4ccc(Cl)cc4)c(=O)n3CC(=O)N3CC(C)(F)C3)n2)C1=O,herpes simplex virus 2,viral cytopathic effect,"Vero, G",120 h,,EC50,280 nM
COc1cc2c(cc1C(=O)Nc1ccc(C(C)(C)C#N)cc1)CCCCC2,Dengue virus 2,viral replication,HEK293,,,EC90,600 nM
C=C[C@]1(C)C[C@@H](OC(=O)CS[C@@H]2C[C@H]3CC[C@@H](C2)N3C)[C@]2(C)[C@H](C)CC[C@]3(CCC(=O)[C@H]32)[C@@H](C)[C@@H]1O,Enterococcus faecium,agar dilution,"vancomycin-susceptible, 64 isolates",,,MIC50,16 µg/mL
N=C(N)c1ccc(OCCCCCOc2ccc(C(=N)N)cc2)cc1,Escherichia coli,outer membrane permeabilization,BW25113,"60 min, added: NPN 0.01 mM",,concentration for maximal NPN uptake,3.1 µg/mL
CC1=C[C@H](O/C=C2/C(=O)O[C@@H]3c4ccccc4C[C@H]23)OC1=O (racemic),Arabidopsis thaliana,,"max2-1 mutant, seedlings",1 µM,,hypocotyl length,9.53 mm
O=c1c(-c2nc3ccccc3s2)cc2c(n1NS(=O)(=O)c1ccccc1)CCCC2,Human alphaherpesvirus 1,"viral replication, plaque reduction",Vero cells,non-toxic concentration,,reduction,40%
COC(=O)[C@@H](CCSC)NCc1cc2ccccc2nc1SC,Pseudomonas aeruginosa,,,"4 µg/mL, added: pentamidine 100 µM",baseline: control,growth,98%
Cc1nc(NCCCCNc2ccnc3cc(Cl)ccc23)nc(-c2ccccc2[N+](=O)[O-])c1C(=O)OC(C)C,feline herpesvirus,viral replication,CRFK,,,EC50,> 20000 nM

# A few entries again:
SMILES,organism,assay,system,setting,scale,measurement,value
COC(=O)[C@H](Cc1ccc(O)cc1)NCc1cc2ccccc2nc1SC,Pseudomonas aeruginosa,,,"64 µg/mL, without pentamidine",baseline: control,growth,90%
Cc1nc2[nH]c(=O)n(O)c(=O)c2s1,Echinochloa crus-galli,glasshouse pot,,"1500 g/ha, 21 days, pre-emergence",,inhibition,9.5%
COc1cc2c(cc1C(=O)Nc1ccc(C(C)(C)C#N)cc1)CCCCC2,Dengue virus 2,viral replication,HEK293,,,EC90,600 nM
